Published values pooled from the literature.
Each line is one published result; not all experiments were run side by side. Several values in a cell are separate wells, animals, samples, runs or records. ± marks the error that the study gave. ≈ marks a conversion by molar mass, not a printed value.

Cc1ccnc(NS(=O)(=O)c2ccc(NC(=O)c3cncc(Br)c3)cc2)n1 — thermodynamic solubility (aqueous buffer; pH 7.4): 146 µM (≈ 65.3 µg/mL)
COc1cc2[nH]c(C)c(-c3ccc(F)cc3)c(=O)c2cc1Cl — kinetic solubility (pH 7.4): 2 to 6 µM
CCCCOc1ccc([C@H]2CC[C@H](CCC)CC2)c(F)c1F — median placental accumulation (rat, placenta; 5000 ng/mL in perfusate, high dose, mixture of 21 LCMs): 219 ng/g
O=C(O)CCCOc1ccc([18F])cc1-c1cc(-c2ccccc2C(F)(F)F)n(-c2ccccc2)n1 — radioactivity uptake (gamma counting; male ddY mice, kidney; intravenous, 2.1 MBq, 5 min): 3.29 ± 0.58 SUV
Cc1ccc([C@@H]2O[C@H](CO)[C@@H](O)[C@H](O)[C@H]2O)cc1Cc1ccc(-c2ccc(F)cc2)s1 — urinary phosphate excretion change (item: inorganic phosphorus; Japanese type 2 diabetes patients; 100 mg, day 3, 24 h urine collection; relative to: baseline): -123 mg
C[C@H]1CN(C(=O)CC#N)[C@]12CCN(c1ncnc3[nH]ccc13)C2 — Cmax (healthy adults, plasma; oral, 1.5 mg single dose, day 1, geometric mean): 7.22 ng/mL
C=CCN1CC(=O)N2[C@@H](Cc3ccc(O)cc3F)C(=O)N(Cc3cccc(N4CC(N5CCN(CC)CC5)C4)n3)C[C@@H]2N1C(=O)NCc1ccccc1 — treatment-related nausea (advanced solid tumour patients; oral, 100 mg twice daily, any grade, dose-escalation): 83.3%
O=C(O)c1cc(O)c(O)c(O)c1 — MRT (rat, plasma; oral, 1000 mg/kg extract, possible metabolite or extract component): 6.08 ± 0.44 h
CC(F)(F)c1nc2nc(CO)cc(Nc3ccc(S(F)(F)(F)(F)F)cc3)n2n1 — AUC(0-t), metabolite (LC-MS/MS; malaria patients, plasma; oral, 800 mg of parent drug): 362000 ng·h/mL
Cc1nc2cccc(OCC(C)(C)C(=O)NC(C)C)c2c(N)c1C(=O)O — mean body weight change (Swiss albino CD-1 mouse; oral, 500 mg/kg, 36 h): 2.7 ± 0.5 g
COc1ccc2c(=O)n(C)c(-c3ccccc3)nc2c1 — tissue concentration (male Sprague-Dawley rat, bladder; oral, 30 mg/kg, 0.5 h): 104 ng/g
CCOc1c([C@H](C)n2nc(C)c3c(N)ncnc32)cc(Cl)c(F)c1[C@@H]1CNC(=O)C1 — Cmax geometric mean (patients, monotherapy; oral, 10 mg once daily, cycle 1 day 15): 749 nM
COc1ccc2c(c1)CN(C(=O)CCN1CCC(Cc3ccccc3)CC1)CC[S@@+]2[O-] — QTc interval (telemetry; conscious male beagle dogs; intravenous, 8 mg/kg, 24 h): 237 ± 21 ms
CNC(=O)c1ccc(-c2cnc3ncc(Cc4ccc5ncccc5c4)n3n2)cc1F — abdominal discomfort incidence (healthy human subjects; oral, 400 mg, grade 3, all causality, together with: rifampicin 600 mg/day): 0%
Cc1cccc(CNC(=O)c2cn(CCNC(=O)c3ccccc3S)c3cc4c(cc3c2=O)OC(F)(F)O4)n1 — AUC(0-inf) (Sprague-Dawley rat, male, whole blood; intravenous, 5 mg/kg of parent compound): 3170 ± 350 ng·h/mL
Cn1cc(Nc2nccc(-c3ccc4c(c3)CN(C3COC3)CC[C@H]4NC(=O)c3cn(C(C)(C)C)nn3)n2)cn1 — B cell count change (human, whole blood; 150 mg twice daily, day 7; relative to: pre-dose baseline): 38.9%
C1=C/COCc2cc(ccc2OCCN2CCCC2)Nc2nccc(n2)-c2cccc(c2)COC/1 — stability relative error (rat plasma; 2 ng/mL, three freeze-thaw cycles; relative to: nominal concentration): 3.17%
COCCOc1cnc2ccn([C@H](C)c3nnc4c(F)cc(-c5cnn(C)c5)cn34)c(=O)c2c1 — Cmax (patients, plasma; oral, 150 mg twice daily, day 1, 300 per day): 3040 ng/mL
CCNCCCNC/C=C\CNCCCNCC — AUMC(0-inf) (LC-MS/MS; human cancer patients, plasma; intravenous infusion 60 min, 50 mg, median, cycle 1): 325 ng·h²/mL
CCN1/C(=C/C(C)=O)Sc2ccc(F)cc21 — QTc interval change (cynomolgus monkey; oral, 10 mg/kg, 2 h post-dose; relative to: pre-dose): 99.2 ± 3.3%
C/C(=N\c1ccc(O)cc1)c1cc2ccccc2n1C — remaining compound (rat plasma; 1.5 ng/mL, 15 days, -80 °C; relative to: nominal concentration): 106 ± 9.3%
C[C@@H]1CCO[C@H]2Cn3cc(C(=O)NCc4ccc(F)cc4F)c(=O)c(O)c3C(=O)N12 — plasma concentration (population PK, post-hoc; children, 10 to <14 kg, plasma; oral, 8 mg granules, 24 h, steady state, geometric mean): 508 ng/mL
Cc1nn(CC(F)(F)F)cc1Nc1ncc(Br)c(NCc2ccc(S(N)(=O)=O)cc2)n1 — PAMPA permeability (PAMPA; PBS; 5 h, pH 7.4): not detected
CCc1ccc(-c2ccc(-c3cc(F)c(F)c(F)c3)c(F)c2)cc1 — median placental accumulation (rat, placenta; 10 ng/mL in perfusate, low dose, mixture of 21 LCMs): 3.02 ng/g
CC(C)c1nc(CN(C)C(=O)N[C@@H](CCN2CCOCC2)C(=O)N[C@H](CC[C@H](Cc2ccccc2)NC(=O)OCc2cncs2)Cc2ccccc2)cs1 — participants with Somnolence (human; oral, dose not given): 0%
Cc1ccc(Sc2ccccc2N2CCNCC2)c(C)c1 — participants with TEAE (item: Headache; healthy adult women; oral, 5 mg daily, 12 days): 0%
C=CC(=O)Nc1cc(Nc2nccc(-c3cn(C)c4ccccc34)n2)c(OC)cc1N(C)CCN(C)C — incidence of treatment-related AEs (item: face oedema; EGFR-mutant MET-altered NSCLC patients; oral, dose not given, AE grade ≥3, all): 2%
O=C(NCCN1CCCC1)c1cc(-c2ccc(CN3CCOCC3)cc2)nc2ccc(F)cc12 — stability duration (human whole blood; -70 °C, citric acid buffer 100 mM, 1/1 v/v): 376 days
O=C(COc1ccc(Cl)cc1)NC12CC(c3nnc([C@H]4C[C@@H](OC(F)(F)F)C4)o3)(C1)C2 — treatment-emergent adverse events (muscle spasms; healthy human, both sexes; oral, dose not given, 14 days, multiple ascending dose, all doses): 5.9%
COc1cccc(-c2n[nH]c(SCc3ccccn3)n2)c1OC — serum total bilirubin (Sprague-Dawley rats, male; diet, 30 mg/kg/day, terminal, 90-day subchronic study): 0.1 mg/dL
CCCCc1ccc(C#Cc2ccc(OCC)cc2)cc1 — median placental accumulation (rat, placenta; 5000 ng/mL in perfusate, high dose, mixture of 21 LCMs): 186 ng/g
Cc1nc(-c2ccc(OCC(C)C)c(C#N)c2)sc1C(=O)O — body weight (KM mouse, chronic hyperuricaemia model; dose not given, day 26): 39.3 g and 34.9 g and 38.4 g and 41.2 g and 33.7 g and 44.2 g
CO[C@H]1C[C@@H]2CC[C@@H](C)[C@@](O)(O2)C(=O)C(=O)N2CCCC[C@H]2C(=O)O[C@H]([C@H](C)C[C@@H]2CC[C@@H](O)[C@H](OC)C2)CC(=O)[C@H](C)/C=C(\C)[C@@H](O)[C@@H](OC)C(=O)[C@H](C)C[C@H](C)/C=C/C=C/C=C/1C — rectal temperature (healthy adult horses; oral, 0.06 mg/kg, 24 h): 37 ± 0.4 °C
O=C(O)CCC(=O)O.[2H]C([2H])([2H])Oc1cc(C)c2[nH]ccc2c1CN1CC[C@@H](C2CC2)C[C@H]1c1ccc(C(=O)O)cc1 — subjects with hyponatraemia (multiple ascending dose; healthy Chinese subjects; 100 mg twice daily): 0%
O=C(OC(C(F)(F)F)C(F)(F)F)N1CCN(Cc2cccc(Oc3ccccc3)c2)CC1 — k2 (PET blocking study; rhesus monkey, brain FCX; 0.01 mg/kg, compound pretreatment, together with: [18F]T-401 tracer): 0.044 min⁻¹
CCN1CCN(Cc2ccc(NC(=O)c3ccc(C)c(NC(=O)c4cncc(-c5cccs5)c4)c3)cc2C(F)(F)F)CC1 — mean plasma concentration (LC-MS/MS; C57BL/6 mouse, plasma; intraperitoneal, 20 mg/kg single dose, 0.5 h): 714 ng/mL
O=C(Nc1nc2cccc(-c3ccc(CN4CCS(=O)(=O)CC4)cc3)n2n1)C1CC1 — treatment-emergent adverse events (item: gastrointestinal disorders; human rheumatoid arthritis patients; oral, 200 mg once daily, 4 weeks, regardless of relatedness): 25%
CCC(C)n1ncn(-c2ccc(N3CCN(c4ccc(OCC5COC(Cn6cncn6)(c6ccc(Cl)cc6Cl)O5)cc4)CC3)cc2)c1=O (centres unmarked) — adverse event incidence (item: lung abscess; healthy human participants; oral, 200 mg, compound alone cohort): 7%
CCn1ncc2c1-c1cnc(N)c(c1)O[C@H](C)c1cc(F)ccc1-c1nn(C)nc1C2 — unbound plasma trough concentration (female athymic nude mice, sample B PDX; oral, 15 mg/kg once daily for 1 days, 12 h): 200 ± 17 nM
Cn1cc([C@H]2C[C@H]3CSC(N)=N[C@@]3(c3ccc(F)cc3F)CO2)cn1 — brain concentration (male 129/SVE mouse, brain; subcutaneous, 10 mg/kg, 6 h): 512 nM
CNc1ccc(-c2nc3ccc(O)cc3s2)cc1 [carbon-11 labelled] — SUV (ex vivo biodistribution; B6SJL mouse, normal, eyes; intravenous, 30 min): 1.89 ± 1.53
CNC(=O)c1ccc(-c2cnc3ncc(Cc4ccc5ncccc5c4)n3n2)cc1F — patients with adverse event (item: Dyspnea; cancer patients; oral, 600 mg twice daily, all expansion cohorts, grade 3-4): 0%
CN1CCN(c2cccc3c2CCN(C(=O)/C=C/c2c(-n4cnnn4)ccc(Cl)c2F)[C@@H]3C(=O)Nc2ccc(C(=O)O)cc2)C(=O)C1 — subjects with skin irritation (healthy human subjects; intravenous infusion, 9 mg/h, 5 days): 0%
COc1ncc(-c2nc3c(n2C(C)C)[C@H](c2ccc(Cl)cc2)N(c2cc(Cl)cn(C)c2=O)C3=O)c(OC)n1 — median half-life (human patients, plasma; oral, 400 mg, high-dose arm, cycle 2 day 1): 40.1 h
COc1ccccc1NC(=O)CSc1nnc(-c2ccccc2Cl)n1-c1ccccc1 — thermodynamic solubility (aqueous buffer; pH 7.4): < 7.14 µM
CCCOc1ccc(NC(=O)CN2CCN(C)CC2)cc1-c1nc(CC)c(CC)c(=O)[nH]1 — AUEC(0-4 h) pulse rate (healthy Chinese men; 10 mg, together with: placebo): 11.3 ± 14.7 h·bpm
FC(F)(F)c1ccc(CNc2ccc(Cc3c[nH]c4ncc(Cl)cc34)cn2)cn1 — treatment-related adverse events (item: Pruritus; patients with advanced solid tumours, all cohorts; oral, 1000 mg/day, any grade): 17%
CC(C)(C(=O)N1CCOc2c(C#N)cncc2C1)C(F)F — subjects with adverse event (item: Radiculopathy; human; oral, 10 mg, CSF pharmacokinetic cohort): 0%
CCn1cc(C(=O)N2CCOCC2)c(=O)c2cc(NC3Cc4ccccc4C3)cnc21 — AUC(0-inf) (human, fasted; oral suspension, 50 mg single dose, arithmetic mean): 1440 ng·h/mL
N#Cc1ccc2c(c1)[C@H]1CCCN(C(=O)c3ccc4[nH]cnc4c3)[C@H]1C2 — ACTH level change (human; 160 mg, day 7; relative to: baseline): 2.5 pmol/L
CN1C(=O)[C@@H](NC(=O)c2nnc(Cc3ccccc3)[nH]2)COc2cccnc21 — medical device site reaction incidence (phase I multiple ascending dose; human, male and female; oral, 200 mg, 14 days): 0%
C[C@@H](Oc1ccc(S(C)(=O)=O)cc1C(=O)N1C[C@@H]2C[C@]2(c2cc(C(F)(F)F)on2)C1)C(F)(F)F — Vz/F (elderly humans, plasma; oral, 25 mg once daily, single dose, geometric mean): 346 L
CCc1cc(C(=O)NC)c2nccc(N3CCc4c(cc(Cn5ccnc5)cc4-c4cn(C)nc4C(F)(F)F)C3=O)c2c1 — body weight (Sprague Dawley rat; oral, 100 mg/kg twice daily, day 6, 7-day toxicology study): 235 ± 5.9 g
O=C(N[C@H](Cc1c[nH]c2ccccc12)C(=O)Nc1ccncc1)c1ccc(-c2ccc(F)c(Cl)c2)cc1F — concentration (Swiss Webster mouse, female, liver; oral, 50 mg/kg, 8 h, 20% Kolliphor vehicle): 60800 nM
CCN(CC)Cc1ccc2cc(COC(=O)Nc3ccc(C(=O)NO)cc3)ccc2c1 — stability relative error (rat plasma; 3200 ng/mL, 4 h, 10 °C, autosampler; relative to: nominal concentration): 101%
c1ccc(-c2nc(N3CCc4nc[nH]c4C3)c3ccccc3n2)nc1 — kinetic solubility (Japanese Pharmacopoeia disintegration test solution 2; pH 6.8): 38 µg/mL

For quick reference, copied from above:
CC(C)(C(=O)N1CCOc2c(C#N)cncc2C1)C(F)F — subjects with adverse event (item: Radiculopathy; human; oral, 10 mg, CSF pharmacokinetic cohort): 0%
CCn1cc(C(=O)N2CCOCC2)c(=O)c2cc(NC3Cc4ccccc4C3)cnc21 — AUC(0-inf) (human, fasted; oral suspension, 50 mg single dose, arithmetic mean): 1440 ng·h/mL
N#Cc1ccc2c(c1)[C@H]1CCCN(C(=O)c3ccc4[nH]cnc4c3)[C@H]1C2 — ACTH level change (human; 160 mg, day 7; relative to: baseline): 2.5 pmol/L
CN1C(=O)[C@@H](NC(=O)c2nnc(Cc3ccccc3)[nH]2)COc2cccnc21 — medical device site reaction incidence (phase I multiple ascending dose; human, male and female; oral, 200 mg, 14 days): 0%
C[C@@H](Oc1ccc(S(C)(=O)=O)cc1C(=O)N1C[C@@H]2C[C@]2(c2cc(C(F)(F)F)on2)C1)C(F)(F)F — Vz/F (elderly humans, plasma; oral, 25 mg once daily, single dose, geometric mean): 346 L
CCc1cc(C(=O)NC)c2nccc(N3CCc4c(cc(Cn5ccnc5)cc4-c4cn(C)nc4C(F)(F)F)C3=O)c2c1 — body weight (Sprague Dawley rat; oral, 100 mg/kg twice daily, day 6, 7-day toxicology study): 235 ± 5.9 g
O=C(N[C@H](Cc1c[nH]c2ccccc12)C(=O)Nc1ccncc1)c1ccc(-c2ccc(F)c(Cl)c2)cc1F — concentration (Swiss Webster mouse, female, liver; oral, 50 mg/kg, 8 h, 20% Kolliphor vehicle): 60800 nM
CCN(CC)Cc1ccc2cc(COC(=O)Nc3ccc(C(=O)NO)cc3)ccc2c1 — stability relative error (rat plasma; 3200 ng/mL, 4 h, 10 °C, autosampler; relative to: nominal concentration): 101%
c1ccc(-c2nc(N3CCc4nc[nH]c4C3)c3ccccc3n2)nc1 — kinetic solubility (Japanese Pharmacopoeia disintegration test solution 2; pH 6.8): 38 µg/mL
